Results gathered from unrelated publications.
Each numbered part is a random draw from the data of one study; scales do not carry over between parts. Substitutions count along the parent as printed.

Sample 1 — method: universal PBM; molecule type: double-stranded DNA, one strand shown; medium: in vitro; concentration: not given; direction: higher = stronger binding
Target: Sal-like protein 4, full length isoform B (SALL4, Homo sapiens, UniProt Q9UJQ4-2, residues 1-616)
Notes: 8-mer, flanks averaged, mean of replicates
Sequence | E-score
GAATAGCA | 0.087
CCCTCAGG | -0.251
AGTTTTCC | -0.0428
CCACGGCC | -0.403
CCCTAGGA | -0.134
CAGCTCCA | -0.153
AATGTACA | 0.209
AGGTGTAT | 0.155
CTCTGATA | 0.116
CACACGAG | -0.214
CGCAGCTA | -0.307
GACAGTTA | 0.108
GTATTAAC | 0.0924
CGTTCTTA | -0.0141
ACAAGCGG | -0.0695
AAGCCTGG | -0.277
CTCAGCCA | -0.114
CTATGTTC | 0.101
GGTAAAGA | 0.136
GTCTCTAA | 0.017
AATCATTA | 0.295
ATCTGCCG | -0.182
GAAGGGAA | -0.193
AGCATGCC | -0.11
AGTCAATA | 0.184

Sample 2 — target: CRIPT, C-terminal peptide; method: DHFR complementation, deep sequencing; medium: yeast; relative to: wild type; direction: higher = weaker binding
Notes: single substitutions, model-inferred values
Parent: ERBIN, PDZ domain 1 (human); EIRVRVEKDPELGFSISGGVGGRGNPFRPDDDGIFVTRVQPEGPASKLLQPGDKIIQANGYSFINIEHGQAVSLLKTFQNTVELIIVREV; partner TKNYKQTSV
Change | binding free energy change [kcal/mol]
P41H | 0.346
L12F | -0.0944
R5M | 0.000208
N59M | -0.029
I66A | 0.196
N65C | 0.081
T81L | 0.0282
E83C | 0.0659
G60S | 0.0855
F14C | -0.93
L74R | 0.093
T81D | 0.0803
E42Y | 0.24
R88Q | 0.371

Sample 3 — target: CCNE2, cyclin fold, Cln2 fusion (human); method: yeast growth competition, sequencing; medium: yeast; notes: weak parent motif; relative to: not given; direction: higher = stronger binding
Parent: WEE1 docking peptide (human); CTLRQKLIFSPCS
Change | normalised enrichment score
CTLRQKLIFAPCS [S10A] | 0.693
CTARQKLIFSPCS [L3A] | 0.771
CTLRQKLIFSACS [P11A] | 0.507
CTLRQKLIFSPCA [S13A] | 0.528
CTLRQALIFSPCS [K6A] | 0.245
CTLRAKLIFSPCS [Q5A] | 0.769
CALRQKLIFSPCS [T2A] | 0.565

Sample 4 — method: competition protein-binding microarray; molecule type: double-stranded DNA, one strand shown; medium: in vitro; concentration: 2 µM; added: Pho4 competitor, 0.05 µM; direction: higher = stronger binding; shared flanks, not repeated: … GTCTTGATTCGCTTGACGCTGCTG
Target: Centromere-binding protein 1, full length, His-tagged (CBF1, Saccharomyces cerevisiae, UniProt P17106, residues 1-351)
Sequence of UniProt P17106 (whole entry, looked up): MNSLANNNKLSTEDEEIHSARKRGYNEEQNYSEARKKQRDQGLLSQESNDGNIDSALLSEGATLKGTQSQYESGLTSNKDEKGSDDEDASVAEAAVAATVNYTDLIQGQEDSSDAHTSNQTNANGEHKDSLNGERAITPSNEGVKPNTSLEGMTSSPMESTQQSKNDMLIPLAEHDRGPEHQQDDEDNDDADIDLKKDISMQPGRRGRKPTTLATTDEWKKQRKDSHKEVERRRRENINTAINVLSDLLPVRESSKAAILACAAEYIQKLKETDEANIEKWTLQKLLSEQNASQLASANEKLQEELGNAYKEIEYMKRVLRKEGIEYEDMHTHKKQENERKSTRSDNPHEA
Notes: whole 60-bp probe, lowest competitor level
Sequence | fluorescence intensity [a.u.]
CTTCTGTAAATTTCCCACGTGTTTTGACGCGCCCCG | 847
TCGGTTTTTCTTACCGTCGTGGCCGTAGAGGTGAGG | 62.4
CCAGACCGTTTAGGCCATGTGCGGATTGTACTTGTT | 80.6
CTTCTGTAAATTTTTCACGTGTCTTGACGCGCCCCG | 839
CTTCTGTAAATTTGTCACCACACTTGACGCGCCCCG | 81.2
AGAATAGTTACGGATCAGGTGATGAGACGATAAAAA | 1120
TATTGTTTTCGTTATCGCGTGGCAAGATATCTTGCG | 119
CTAACGAAGGTTTGTCACTGTACTTACAAGCCAAGT | 70.5
ATTTCTTTAGCCGGCCACGTGGCAACTGAAATGTCT | 1580
ACAGGCAGGGGGTCCCACGATTCCTGTGCCGACATT | 68.1
CGGGGTTAAGTTTTTCACGTGAGGTGCTTGCAGCAG | 784
CTTCTGTAAATTTGTCACCAAACTTGACGCGCCCCG | 95.6
AGAAGAGACGCAGCAAGCGTGGGTAAATGATAATGA | 84.4
TGCAGTTTTCTTTCACACGTTCGAAAGCCCCTTTGA | 104
TGCTAAGACCATAGGCACATGTACGCAGGCGACCAG | 110
TGAGTCTTTGGGTCCCACGTGCTTTCTAAAACTTCA | 2180
CGTCCTAGTGATTTTCACGTGCATTCCATGAGGAAG | 1320
CTGTTCCTAAGTTATTTCGTGGGACAAGCGGACATG | 81.3
CTTCTGTAAATTTTGCACGTGTTTTGACGCGCCCCG | 1370

Sample 5 — method: protein binding microarray; molecule type: double-stranded DNA, one strand shown; medium: in vitro; concentration: not given; relative to: not given; direction: higher = stronger binding
Target: Histone acetyltransferase KAT6A, winged helix 2, GST fusion (KAT6A, Homo sapiens, UniProt Q92794, residues 85-181)
Notes: 8-mer, flanks averaged, mean of 2 arrays, mostly near background
Construct (chain): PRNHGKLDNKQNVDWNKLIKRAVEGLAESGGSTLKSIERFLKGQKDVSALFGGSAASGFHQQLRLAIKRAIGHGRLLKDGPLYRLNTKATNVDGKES
Sequence | E-score
AGCAGGGC | 0.0829
TACCCACA | -0.0296
CAACTTCC | -0.0447
GCGGGTTA | 0.0136
CATCCAGA | -0.0959
AGCCAGAT | 0.0748
CCGAGGCG | 0.196
AGAGCCCG | 0.113
CTAGTCCC | 0.00464
AAACTTGA | 0.0979
ACGCAATA | -0.0369
CAGTACGC | -0.044
GAACGATC | -0.0441
CCGGAAAC | 0.154
ACCCCACT | -0.139
GGCTAACA | 0.0279
GAAGGCCC | 0.0778
AATTACTA | -0.0802
GATTACCC | -0.0298
CGGAGTGC | 0.199
ACCAACTA | -0.0753
ACTGGAGG | 0.0705
GGGGCGAC | 0.0772

Sample 6 — method: DHFR PCA, deep sequencing; medium: yeast; added: (+)-ABA 58 µM; relative to: wild-type fitted maximum; direction: higher = stronger binding
Target: ABI1, truncated, D143A, DHFR fusion (Arabidopsis thaliana)
Notes: methotrexate growth selection, single substitutions
Parent: PYL1, truncated, DHFR fusion (Arabidopsis thaliana); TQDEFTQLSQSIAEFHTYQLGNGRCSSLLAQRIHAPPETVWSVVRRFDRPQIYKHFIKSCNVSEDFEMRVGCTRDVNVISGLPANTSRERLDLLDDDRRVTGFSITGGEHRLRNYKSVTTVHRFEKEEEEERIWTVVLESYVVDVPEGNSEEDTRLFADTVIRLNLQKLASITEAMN; partner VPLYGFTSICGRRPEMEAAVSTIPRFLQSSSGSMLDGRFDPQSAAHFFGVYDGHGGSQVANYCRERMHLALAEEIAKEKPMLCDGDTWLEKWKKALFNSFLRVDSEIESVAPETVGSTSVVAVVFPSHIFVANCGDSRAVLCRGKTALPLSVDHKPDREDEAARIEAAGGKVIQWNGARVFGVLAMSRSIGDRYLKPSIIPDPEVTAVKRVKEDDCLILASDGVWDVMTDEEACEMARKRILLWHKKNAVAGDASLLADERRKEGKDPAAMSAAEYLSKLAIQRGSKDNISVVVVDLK
Change | relative binding score
E129L | 92.5%
P83N | 19.9%
P36F | 54.7%
S63P | 91.6%
L20F | 81.1%
L156D | 70.4%
Q2W | 74.8%
S11K | 81.5%
T86E | 61.9%
V118C | 89.1%
E130Q | 93.6%
T135G | 1.67%
A84P | 3.6%
M68N | 79.3%
Y53L | -9.72%
H55R | 89.4%
P36S | 86.6%
T120R | -0.893%
E139Y | 80.7%

Further values, each from its own experiment
Substance | target | assay | system | setting | how to read | endpoint | result
PhoQ, residues 284 288 289 292 302 303 MLMVEA | PhoP, residues 12 14 15 18 19 QQAYL (Escherichia coli, UniProt P23836) | Sort-seq, measured: YFP reporter | E. coli | PhoQ-PhoP variant library, added: 10 µM Mg2+ | relative to: high Mg2+ state, higher = stronger signaling | fold induction | 27.6

A few entries again (sample 5):
Sequence | E-score
CATCCAGA | -0.0959
AGCCAGAT | 0.0748
CCGAGGCG | 0.196
AGAGCCCG | 0.113
CTAGTCCC | 0.00464
AAACTTGA | 0.0979
ACGCAATA | -0.0369
CAGTACGC | -0.044
GAACGATC | -0.0441
CCGGAAAC | 0.154
ACCCCACT | -0.139
GGCTAACA | 0.0279
GAAGGCCC | 0.0778
AATTACTA | -0.0802
GATTACCC | -0.0298
